Measured values gathered from unrelated publications.
Each numbered part is a random draw from the data of one study; scales do not carry over between parts.
Chain of UniProt P42336 (whole entry, unmodified, looked up): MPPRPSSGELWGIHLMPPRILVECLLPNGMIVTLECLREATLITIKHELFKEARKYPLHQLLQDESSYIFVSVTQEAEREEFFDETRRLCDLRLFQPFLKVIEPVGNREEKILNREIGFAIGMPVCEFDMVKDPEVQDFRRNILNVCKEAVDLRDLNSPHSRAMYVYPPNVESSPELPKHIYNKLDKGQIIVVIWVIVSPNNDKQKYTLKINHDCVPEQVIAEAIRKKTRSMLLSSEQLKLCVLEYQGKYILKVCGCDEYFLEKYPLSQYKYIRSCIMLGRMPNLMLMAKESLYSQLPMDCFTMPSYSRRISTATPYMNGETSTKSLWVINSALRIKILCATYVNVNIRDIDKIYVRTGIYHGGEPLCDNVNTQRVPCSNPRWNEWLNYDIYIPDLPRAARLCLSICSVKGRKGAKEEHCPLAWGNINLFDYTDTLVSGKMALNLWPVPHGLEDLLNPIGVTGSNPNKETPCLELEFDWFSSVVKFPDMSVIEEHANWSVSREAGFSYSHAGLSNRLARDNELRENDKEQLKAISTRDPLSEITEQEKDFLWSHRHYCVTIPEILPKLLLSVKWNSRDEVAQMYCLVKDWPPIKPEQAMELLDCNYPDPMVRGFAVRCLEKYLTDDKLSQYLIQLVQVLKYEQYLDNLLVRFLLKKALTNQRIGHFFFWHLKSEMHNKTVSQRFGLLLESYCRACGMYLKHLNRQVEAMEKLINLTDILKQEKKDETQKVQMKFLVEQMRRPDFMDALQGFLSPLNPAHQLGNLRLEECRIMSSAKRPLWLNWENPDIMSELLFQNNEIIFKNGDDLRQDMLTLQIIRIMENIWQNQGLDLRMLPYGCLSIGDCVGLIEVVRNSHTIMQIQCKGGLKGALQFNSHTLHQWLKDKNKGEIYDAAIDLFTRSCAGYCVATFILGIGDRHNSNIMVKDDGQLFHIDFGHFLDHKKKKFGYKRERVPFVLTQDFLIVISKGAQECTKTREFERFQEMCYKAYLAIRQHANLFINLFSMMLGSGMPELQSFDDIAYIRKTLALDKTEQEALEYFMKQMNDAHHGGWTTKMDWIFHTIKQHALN
Chain of UniProt P53667 (whole entry, looked up): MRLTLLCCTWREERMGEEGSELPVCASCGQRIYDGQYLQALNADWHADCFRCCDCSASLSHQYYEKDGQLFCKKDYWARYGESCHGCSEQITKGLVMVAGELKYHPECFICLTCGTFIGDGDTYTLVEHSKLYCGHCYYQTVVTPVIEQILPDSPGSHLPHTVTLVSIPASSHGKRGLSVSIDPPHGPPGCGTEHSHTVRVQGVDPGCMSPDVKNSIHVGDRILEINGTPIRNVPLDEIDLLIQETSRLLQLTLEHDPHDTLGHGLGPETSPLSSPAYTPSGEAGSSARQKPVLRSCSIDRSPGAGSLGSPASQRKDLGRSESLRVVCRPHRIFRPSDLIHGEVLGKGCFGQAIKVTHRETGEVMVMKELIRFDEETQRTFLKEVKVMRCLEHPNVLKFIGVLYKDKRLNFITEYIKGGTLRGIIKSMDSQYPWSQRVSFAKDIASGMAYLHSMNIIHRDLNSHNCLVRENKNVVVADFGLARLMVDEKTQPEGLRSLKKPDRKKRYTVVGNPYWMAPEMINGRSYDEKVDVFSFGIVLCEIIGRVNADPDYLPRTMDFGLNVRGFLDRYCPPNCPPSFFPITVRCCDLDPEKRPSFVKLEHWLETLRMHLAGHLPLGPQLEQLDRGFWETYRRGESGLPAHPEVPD
Chain of UniProt P42338 (whole entry, looked up): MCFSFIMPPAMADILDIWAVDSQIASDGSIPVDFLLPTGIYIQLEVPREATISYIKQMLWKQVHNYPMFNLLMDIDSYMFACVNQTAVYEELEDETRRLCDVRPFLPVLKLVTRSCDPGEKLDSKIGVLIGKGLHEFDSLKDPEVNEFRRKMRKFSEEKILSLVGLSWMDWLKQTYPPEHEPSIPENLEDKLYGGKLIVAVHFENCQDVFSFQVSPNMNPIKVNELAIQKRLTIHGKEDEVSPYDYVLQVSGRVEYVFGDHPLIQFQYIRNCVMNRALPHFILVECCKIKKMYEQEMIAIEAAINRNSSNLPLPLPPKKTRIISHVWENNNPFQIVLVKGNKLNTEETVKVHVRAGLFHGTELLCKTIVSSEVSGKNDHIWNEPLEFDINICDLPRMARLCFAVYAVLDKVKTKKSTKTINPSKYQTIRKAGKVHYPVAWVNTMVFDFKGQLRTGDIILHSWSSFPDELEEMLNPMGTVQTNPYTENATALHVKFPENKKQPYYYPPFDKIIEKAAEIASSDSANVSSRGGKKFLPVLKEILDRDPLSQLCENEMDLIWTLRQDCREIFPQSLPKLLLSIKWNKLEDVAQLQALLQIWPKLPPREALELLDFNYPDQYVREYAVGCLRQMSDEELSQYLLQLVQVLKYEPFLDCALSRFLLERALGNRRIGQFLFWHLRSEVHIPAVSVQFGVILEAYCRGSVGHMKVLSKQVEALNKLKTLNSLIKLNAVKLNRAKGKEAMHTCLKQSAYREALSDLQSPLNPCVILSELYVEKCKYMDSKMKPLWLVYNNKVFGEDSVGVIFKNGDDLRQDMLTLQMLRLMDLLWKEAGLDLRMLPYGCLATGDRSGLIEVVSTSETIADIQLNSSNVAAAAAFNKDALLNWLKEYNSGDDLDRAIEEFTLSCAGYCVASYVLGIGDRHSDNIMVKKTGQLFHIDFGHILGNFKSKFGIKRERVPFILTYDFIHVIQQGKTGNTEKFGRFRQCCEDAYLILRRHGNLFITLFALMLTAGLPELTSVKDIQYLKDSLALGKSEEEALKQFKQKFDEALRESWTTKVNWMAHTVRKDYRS
Chain of UniProt Q16659 (whole entry, looked up): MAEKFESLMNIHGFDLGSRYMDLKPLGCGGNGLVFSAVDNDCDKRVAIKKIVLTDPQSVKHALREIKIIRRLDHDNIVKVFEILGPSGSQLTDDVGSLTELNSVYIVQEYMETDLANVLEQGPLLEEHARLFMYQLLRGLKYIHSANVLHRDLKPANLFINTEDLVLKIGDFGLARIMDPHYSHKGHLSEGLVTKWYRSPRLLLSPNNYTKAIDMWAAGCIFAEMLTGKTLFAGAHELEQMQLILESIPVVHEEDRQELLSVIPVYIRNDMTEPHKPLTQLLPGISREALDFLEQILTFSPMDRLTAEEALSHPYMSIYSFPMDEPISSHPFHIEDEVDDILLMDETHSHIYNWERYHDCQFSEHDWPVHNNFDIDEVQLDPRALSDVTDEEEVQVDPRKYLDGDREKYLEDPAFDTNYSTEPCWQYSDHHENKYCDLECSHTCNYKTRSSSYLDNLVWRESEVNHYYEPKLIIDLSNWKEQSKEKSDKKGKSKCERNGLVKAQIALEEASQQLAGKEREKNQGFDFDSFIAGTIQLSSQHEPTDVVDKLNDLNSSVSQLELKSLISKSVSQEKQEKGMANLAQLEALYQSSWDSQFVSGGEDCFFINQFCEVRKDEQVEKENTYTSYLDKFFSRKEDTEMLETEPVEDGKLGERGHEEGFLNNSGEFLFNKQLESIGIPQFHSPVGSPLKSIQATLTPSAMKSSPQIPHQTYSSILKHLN
Chain of UniProt Q13882 (whole entry, looked up): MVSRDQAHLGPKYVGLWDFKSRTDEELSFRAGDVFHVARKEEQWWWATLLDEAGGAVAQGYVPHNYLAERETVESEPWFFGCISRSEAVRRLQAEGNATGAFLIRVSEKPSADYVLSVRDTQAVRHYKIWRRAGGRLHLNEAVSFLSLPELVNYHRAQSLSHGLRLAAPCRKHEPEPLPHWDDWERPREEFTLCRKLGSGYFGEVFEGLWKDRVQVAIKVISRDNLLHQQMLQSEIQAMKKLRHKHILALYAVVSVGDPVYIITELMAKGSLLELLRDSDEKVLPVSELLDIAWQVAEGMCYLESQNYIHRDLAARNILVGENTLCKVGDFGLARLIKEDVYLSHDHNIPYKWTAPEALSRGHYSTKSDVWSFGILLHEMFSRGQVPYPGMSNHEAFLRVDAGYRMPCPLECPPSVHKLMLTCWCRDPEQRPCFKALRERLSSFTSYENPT
Chain of UniProt Q9UPE1 (whole entry, looked up): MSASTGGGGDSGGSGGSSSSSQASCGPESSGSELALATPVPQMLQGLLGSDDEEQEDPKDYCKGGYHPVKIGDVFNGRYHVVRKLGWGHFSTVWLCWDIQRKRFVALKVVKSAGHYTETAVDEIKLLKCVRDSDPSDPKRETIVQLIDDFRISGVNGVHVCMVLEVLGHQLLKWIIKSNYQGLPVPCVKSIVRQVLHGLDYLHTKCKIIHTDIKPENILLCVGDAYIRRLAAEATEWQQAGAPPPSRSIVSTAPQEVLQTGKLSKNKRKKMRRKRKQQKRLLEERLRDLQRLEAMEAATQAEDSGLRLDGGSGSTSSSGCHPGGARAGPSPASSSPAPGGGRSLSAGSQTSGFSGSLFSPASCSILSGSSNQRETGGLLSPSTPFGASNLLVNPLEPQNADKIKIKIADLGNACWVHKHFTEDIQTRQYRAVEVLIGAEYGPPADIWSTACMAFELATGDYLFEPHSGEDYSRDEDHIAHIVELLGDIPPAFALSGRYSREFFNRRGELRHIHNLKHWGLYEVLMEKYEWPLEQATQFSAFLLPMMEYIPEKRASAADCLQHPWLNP

Block 1
Cell line: HaCaT
Concentration: 100 µM
Time: 36 h
| Structure (SMILES) | viability [%] |
| --- | --- |
| CCCCC1=NC2(CCCC2)C(=O)N1Cc1ccc(-c2ccccc2-c2nnn[nH]2)cc1 | 91.4 |
| CC(C)[C@H](N)C(=O)OCC(CO)OCn1cnc2c(=O)nc(N)[nH]c21 (stereo partly shown) | 99.9 |
| COc1c(N2CCNC(C)C2)c(F)cc2c(=O)c(C(=O)O)cn(C3CC3)c12 (stereo not shown) | 88 |

Block 2
Target: Ras GTPase-activating protein-binding protein 1, RRM domain (G3BP1, Homo sapiens, UniProt Q13283)
Chain of UniProt Q13283 (whole entry, looked up): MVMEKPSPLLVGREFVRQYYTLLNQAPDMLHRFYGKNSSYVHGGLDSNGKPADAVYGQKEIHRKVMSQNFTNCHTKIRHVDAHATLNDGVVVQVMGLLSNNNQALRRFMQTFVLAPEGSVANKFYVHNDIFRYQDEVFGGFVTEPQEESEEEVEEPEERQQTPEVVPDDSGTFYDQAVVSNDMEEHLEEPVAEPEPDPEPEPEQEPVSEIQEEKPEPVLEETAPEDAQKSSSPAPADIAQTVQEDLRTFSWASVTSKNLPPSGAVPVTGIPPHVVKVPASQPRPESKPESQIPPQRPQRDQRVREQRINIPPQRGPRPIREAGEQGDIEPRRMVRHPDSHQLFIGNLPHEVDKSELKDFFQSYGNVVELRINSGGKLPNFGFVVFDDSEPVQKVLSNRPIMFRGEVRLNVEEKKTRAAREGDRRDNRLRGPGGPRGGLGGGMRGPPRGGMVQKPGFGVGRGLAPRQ
Method: RNA Bind-n-Seq
Form: RNA
Medium: in vitro
Concentration: 1 µM
Setting: whole 134-nt RNA, ends assumed
Together with: 150 mM KCl
Reference: input library
Reading: higher = stronger binding
Constant ends, left off below: GGGAGUUCUACAGUCCGACGAUC … UGGAAUUCUCGGGUGUCAAGG
| Oligonucleotide | log2 enrichment |
| --- | --- |
| UGGCCCUGGUGGCAUGCGGGGAGGAAGAGGUGGCCUCAUGGUUCGUGGUGGUCCCGGUGGAAUGUUCAGAGGUGGCCGUGGUGGAGACAG | 0.415 |
| AGUCCUGUGCUACACAUCGUAUGUACCGAAUCGGUUUUUGGAAAAAAAGGUUUUUGGAAAGUAUUAUGUUACGCCGUUCGGAUCUGCACU | -0.426 |
| CUGUGCUACACAUCGUAUGUACCGAAUCGGGGUUUUUUUGGGGUUUUUGGGGAAAAAGGGGAAAGUAUUAUGUUACGCCGUUCGGAUCUG | 0.802 |
| ACCAUGCAGGUGGGCAUCUUUGGGAAGUGGGGCAAGAAAGGGAUAGGGAGGGGGGUAACACUUUGGGAACAGGUGGUCCCAGGUCGUUUC | -0.238 |
| CAAGUCCUGUGCUACACAUCGUAUGUACCGAAUCGGAAAGGAAAGGUUUUUUUGGAAAGUAUUAUGUUACGCCGUUCGGAUCUGCACUUC | -0.317 |
| UCCUCAAGUCCUGUGCUACACAUCGUAUGUACCGAAUCGGAGGGAGGGAGGAAAGUAUUAUGUUACGCCGUUCGGAUCUGCACUUCCAGC | -0.256 |
| CUGUGCUACACAUCGUAUGUACCGAAUCGGGGAAAAAGGGGAAAAAAAGGGGAAAAAGGGGAAAGUAUUAUGUUACGCCGUUCGGAUCUG | 0.721 |
| UCAAGUCCUGUGCUACACAUCGUAUGUACCGAAUCGGUUUUUUUGGAAAGGAGGAAAGUAUUAUGUUACGCCGUUCGGAUCUGCACUUCC | -0.116 |

Block 3
SMILES: CC1=C(C#N)C(c2ccc3c(c2)c(NC(=O)c2ccccc2C)nn3C)C(C#N)=C(C)N1
Concentration: 1 µM
| target | assay | remaining binding |
| --- | --- | --- |
| SYK (Homo sapiens, UniProt P43405) | cell-free assay, competition with immobilised ligand | 100% |
| CSNK2A1 (Homo sapiens, UniProt P68400) | cell-free assay, competition with immobilised ligand | 63% |
| PRPF4B (Homo sapiens, UniProt Q13523) | cell-free assay, competition with immobilised ligand | 77% |
| PIK3CB (Homo sapiens, UniProt P42338) | cell-free assay, competition with immobilised ligand | 86% |
| CDC42BPA (Homo sapiens, UniProt Q5VT25) | cell-free assay, competition with immobilised ligand | 100% |
| PIK3CA (Homo sapiens, UniProt P42336, E545K) | cell-free assay, competition with immobilised ligand | 90% |
| PIK3CA (Homo sapiens, UniProt P42336, E545A) | cell-free assay, competition with immobilised ligand | 71% |
| MAPK6 (Homo sapiens, UniProt Q16659) | cell-free assay, competition with immobilised ligand | 97% |
| Tyrosine-protein kinase ABL1, phosphorylated (ABL1, Homo sapiens, UniProt P00519, F317I) | binding | 78% |
| PRKACB (Homo sapiens, UniProt P22694) | cell-free assay, competition with immobilised ligand | 100% |
| Ribosomal protein S6 kinase alpha-5, C-terminal kinase domain (RPS6KA5, Homo sapiens, UniProt O75582) | cell-free assay, competition with immobilised ligand | 87% |
| MAP4K1 (Homo sapiens, UniProt Q92918) | cell-free assay, competition with immobilised ligand | 81% |
| SRPK3 (Homo sapiens, UniProt Q9UPE1) | cell-free assay, competition with immobilised ligand | 100% |
| MAK (Homo sapiens, UniProt P20794) | binding, competition with immobilised ligand | 100% |
| LIM domain kinase 1 (LIMK1, Homo sapiens, UniProt P53667) | cell-free assay, competition with immobilised ligand | 94% |
| PTK6 (Homo sapiens, UniProt Q13882) | cell-free assay, competition with immobilised ligand | 100% |
| LATS1 (Homo sapiens, UniProt O95835) | cell-free assay, competition with immobilised ligand | 85% |
| IGF1R (Homo sapiens, UniProt P08069) | cell-free assay, competition with immobilised ligand | 96% |

Block 4
Target: Interferon regulatory factor 5, full length, phosphomimetic (IRF5, Homo sapiens, UniProt Q13568-2, residues 1-514, S451D/S453D/S456D/S462D)
Method: protein-binding microarray
Form: double-stranded DNA, one strand shown
Medium: in vitro
Concentration: 940 nM top
Setting: 60-bp whole probe
Together with: salmon DNA 0.4 mg/ml
Reference: random background probes
Reading: higher = stronger binding
Constant ends, left off below: GCCTAGCAC … GTGCTAGGTCTTGATTCGCTTGACGCTGCTG
| Oligonucleotide | fitted relative affinity [z-score] |
| --- | --- |
| GACGGTCTCCTTATTCTGAC | 0.503 |
| AGGGTCTTCAGGTTCTCCCC | -0.0496 |
| ATTGCTTCCTCTTTTTTGTT | 1.54 |
| GACGGTTTCCGTTCCGGGAC | 1.88 |
| GACGGACTGGGACTGGGGAC | -0.596 |
| TCAACTCTCTACATGTGACT | 0.981 |
| TCCAATTACCTTTTCACTTT | 1.45 |
| TTAGGTTTCGGTCACGGTTA | 15.1 |

Block 5
Organism: Sarcocystis neurona
Read-out: parasite growth
Concentration: 10 µM
Setting: secondary screen
| SMILES | inhibition [%] |
| --- | --- |
| Cc1c(C(=O)NN2CCCCC2)nn(-c2ccc(Cl)cc2Cl)c1-c1ccc(I)cc1 | 94.2 |
| CCCCC[C@H](O)/C=C/[C@H]1[C@H](O)CC(=O)[C@@H]1CCCCCCC(=O)O | -50.8 |
| O=c1[nH]c(=O)n([C@H]2C[C@H](O)[C@@H](CO)O2)cc1F | 17 |

For quick reference, copied from above (block 2):
| Oligonucleotide | log2 enrichment |
| --- | --- |
| ACCAUGCAGGUGGGCAUCUUUGGGAAGUGGGGCAAGAAAGGGAUAGGGAGGGGGGUAACACUUUGGGAACAGGUGGUCCCAGGUCGUUUC | -0.238 |
| CAAGUCCUGUGCUACACAUCGUAUGUACCGAAUCGGAAAGGAAAGGUUUUUUUGGAAAGUAUUAUGUUACGCCGUUCGGAUCUGCACUUC | -0.317 |
| UCCUCAAGUCCUGUGCUACACAUCGUAUGUACCGAAUCGGAGGGAGGGAGGAAAGUAUUAUGUUACGCCGUUCGGAUCUGCACUUCCAGC | -0.256 |
